Published values from different studies.
Protocols differ between the studies behind these lines. “And” joins repeats or separate records; there may be more than shown. Numbers after ± are the reported error.
UniProt A5GZW8, sequence (whole entry, looked up): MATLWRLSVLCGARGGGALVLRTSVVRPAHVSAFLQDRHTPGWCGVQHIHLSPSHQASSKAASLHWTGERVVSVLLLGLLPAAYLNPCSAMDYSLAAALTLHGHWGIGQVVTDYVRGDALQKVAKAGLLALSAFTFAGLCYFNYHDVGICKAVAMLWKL
UniProt Q007T0, sequence (whole entry, looked up): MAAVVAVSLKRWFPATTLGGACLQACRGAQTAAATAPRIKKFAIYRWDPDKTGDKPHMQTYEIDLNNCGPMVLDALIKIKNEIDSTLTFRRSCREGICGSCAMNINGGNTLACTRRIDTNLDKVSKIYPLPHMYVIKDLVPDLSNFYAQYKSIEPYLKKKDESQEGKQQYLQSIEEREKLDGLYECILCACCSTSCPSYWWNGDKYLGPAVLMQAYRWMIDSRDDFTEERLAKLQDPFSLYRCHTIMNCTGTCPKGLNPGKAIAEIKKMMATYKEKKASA
UniProt D0VWV4, sequence (whole entry, looked up): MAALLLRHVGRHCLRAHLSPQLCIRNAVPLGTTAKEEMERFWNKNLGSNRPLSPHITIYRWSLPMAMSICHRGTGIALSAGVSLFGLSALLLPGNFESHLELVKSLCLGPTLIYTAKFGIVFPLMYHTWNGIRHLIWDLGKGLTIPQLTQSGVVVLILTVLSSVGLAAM
UniProt Q9ULC6, sequence (whole entry, looked up): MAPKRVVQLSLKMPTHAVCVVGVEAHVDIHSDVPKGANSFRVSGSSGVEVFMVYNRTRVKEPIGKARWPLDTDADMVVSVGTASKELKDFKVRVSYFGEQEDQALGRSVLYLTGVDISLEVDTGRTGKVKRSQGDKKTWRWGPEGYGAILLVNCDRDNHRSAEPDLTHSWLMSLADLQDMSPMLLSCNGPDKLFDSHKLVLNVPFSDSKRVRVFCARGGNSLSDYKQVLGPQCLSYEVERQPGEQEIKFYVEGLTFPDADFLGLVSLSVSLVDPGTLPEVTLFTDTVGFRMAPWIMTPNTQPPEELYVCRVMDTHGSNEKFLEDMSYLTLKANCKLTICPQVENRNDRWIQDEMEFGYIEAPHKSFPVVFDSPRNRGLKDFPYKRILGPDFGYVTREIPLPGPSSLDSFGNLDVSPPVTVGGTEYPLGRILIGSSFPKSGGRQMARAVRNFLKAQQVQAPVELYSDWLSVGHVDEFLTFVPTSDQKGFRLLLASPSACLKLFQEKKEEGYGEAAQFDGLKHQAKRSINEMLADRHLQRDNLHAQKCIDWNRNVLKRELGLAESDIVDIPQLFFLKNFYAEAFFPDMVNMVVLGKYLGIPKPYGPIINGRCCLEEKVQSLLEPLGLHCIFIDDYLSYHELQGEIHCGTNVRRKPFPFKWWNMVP
UniProt Q61205, sequence (whole entry, looked up): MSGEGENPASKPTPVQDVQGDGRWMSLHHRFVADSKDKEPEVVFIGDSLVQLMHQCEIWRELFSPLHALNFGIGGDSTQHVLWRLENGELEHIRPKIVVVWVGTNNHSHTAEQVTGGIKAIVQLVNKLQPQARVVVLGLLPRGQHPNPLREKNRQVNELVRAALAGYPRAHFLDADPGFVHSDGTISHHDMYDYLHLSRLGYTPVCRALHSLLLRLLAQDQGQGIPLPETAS
UniProt Q6DWJ6, sequence (whole entry, looked up): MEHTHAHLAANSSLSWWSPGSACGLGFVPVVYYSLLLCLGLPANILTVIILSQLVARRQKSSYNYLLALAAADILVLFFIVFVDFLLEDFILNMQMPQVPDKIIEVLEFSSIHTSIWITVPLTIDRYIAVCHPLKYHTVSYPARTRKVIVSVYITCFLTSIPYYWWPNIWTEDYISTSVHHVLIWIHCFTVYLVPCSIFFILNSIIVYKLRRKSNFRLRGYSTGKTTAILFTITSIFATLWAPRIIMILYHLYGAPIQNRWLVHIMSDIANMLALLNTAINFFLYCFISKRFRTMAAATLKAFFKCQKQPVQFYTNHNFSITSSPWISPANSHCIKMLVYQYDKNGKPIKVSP
UniProt P00519, sequence (whole entry, looked up): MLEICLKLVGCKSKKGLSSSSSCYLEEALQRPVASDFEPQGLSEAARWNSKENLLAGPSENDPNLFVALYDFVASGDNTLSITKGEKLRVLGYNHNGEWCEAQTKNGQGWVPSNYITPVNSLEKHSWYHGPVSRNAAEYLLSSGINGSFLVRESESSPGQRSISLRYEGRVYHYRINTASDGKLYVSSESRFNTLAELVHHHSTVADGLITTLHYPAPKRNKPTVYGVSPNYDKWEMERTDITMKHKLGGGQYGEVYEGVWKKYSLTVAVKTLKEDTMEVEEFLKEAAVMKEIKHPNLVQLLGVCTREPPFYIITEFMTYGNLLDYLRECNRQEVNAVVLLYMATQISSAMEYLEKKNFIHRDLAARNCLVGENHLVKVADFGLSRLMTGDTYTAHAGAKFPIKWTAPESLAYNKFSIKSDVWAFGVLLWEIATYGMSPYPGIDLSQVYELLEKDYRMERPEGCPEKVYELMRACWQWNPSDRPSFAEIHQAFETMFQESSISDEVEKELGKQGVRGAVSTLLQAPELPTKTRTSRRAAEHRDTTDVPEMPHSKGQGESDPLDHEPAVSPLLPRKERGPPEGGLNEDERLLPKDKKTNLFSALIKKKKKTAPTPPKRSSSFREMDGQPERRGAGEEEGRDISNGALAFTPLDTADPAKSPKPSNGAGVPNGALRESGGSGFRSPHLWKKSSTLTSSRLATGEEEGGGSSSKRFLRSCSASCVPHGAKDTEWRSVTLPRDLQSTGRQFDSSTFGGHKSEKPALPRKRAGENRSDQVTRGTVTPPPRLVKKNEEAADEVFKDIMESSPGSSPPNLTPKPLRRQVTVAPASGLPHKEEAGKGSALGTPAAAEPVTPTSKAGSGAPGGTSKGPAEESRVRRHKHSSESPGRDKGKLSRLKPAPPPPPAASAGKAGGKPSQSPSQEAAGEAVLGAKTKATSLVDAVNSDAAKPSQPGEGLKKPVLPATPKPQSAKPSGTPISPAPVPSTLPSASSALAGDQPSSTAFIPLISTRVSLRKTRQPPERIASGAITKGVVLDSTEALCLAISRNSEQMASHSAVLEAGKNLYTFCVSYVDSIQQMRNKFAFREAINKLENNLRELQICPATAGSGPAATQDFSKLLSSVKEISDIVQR
UniProt P42680, sequence (whole entry, looked up): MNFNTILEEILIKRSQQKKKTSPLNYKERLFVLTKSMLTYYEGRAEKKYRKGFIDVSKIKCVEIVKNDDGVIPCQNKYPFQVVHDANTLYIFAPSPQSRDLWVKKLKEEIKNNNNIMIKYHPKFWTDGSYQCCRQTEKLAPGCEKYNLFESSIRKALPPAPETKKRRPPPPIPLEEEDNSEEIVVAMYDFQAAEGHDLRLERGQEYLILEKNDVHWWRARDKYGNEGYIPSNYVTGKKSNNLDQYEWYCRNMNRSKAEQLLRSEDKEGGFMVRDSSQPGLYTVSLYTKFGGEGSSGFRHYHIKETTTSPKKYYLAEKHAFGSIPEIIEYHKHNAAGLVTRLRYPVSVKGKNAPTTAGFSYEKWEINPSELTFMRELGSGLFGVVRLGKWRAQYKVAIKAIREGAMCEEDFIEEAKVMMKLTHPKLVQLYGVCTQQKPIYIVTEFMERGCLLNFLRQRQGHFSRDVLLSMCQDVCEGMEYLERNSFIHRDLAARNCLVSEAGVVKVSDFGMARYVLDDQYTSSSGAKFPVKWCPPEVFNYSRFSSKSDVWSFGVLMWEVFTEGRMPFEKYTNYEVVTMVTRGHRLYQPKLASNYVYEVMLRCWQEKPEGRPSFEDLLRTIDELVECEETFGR
UniProt O96017, sequence (whole entry, unmodified, looked up): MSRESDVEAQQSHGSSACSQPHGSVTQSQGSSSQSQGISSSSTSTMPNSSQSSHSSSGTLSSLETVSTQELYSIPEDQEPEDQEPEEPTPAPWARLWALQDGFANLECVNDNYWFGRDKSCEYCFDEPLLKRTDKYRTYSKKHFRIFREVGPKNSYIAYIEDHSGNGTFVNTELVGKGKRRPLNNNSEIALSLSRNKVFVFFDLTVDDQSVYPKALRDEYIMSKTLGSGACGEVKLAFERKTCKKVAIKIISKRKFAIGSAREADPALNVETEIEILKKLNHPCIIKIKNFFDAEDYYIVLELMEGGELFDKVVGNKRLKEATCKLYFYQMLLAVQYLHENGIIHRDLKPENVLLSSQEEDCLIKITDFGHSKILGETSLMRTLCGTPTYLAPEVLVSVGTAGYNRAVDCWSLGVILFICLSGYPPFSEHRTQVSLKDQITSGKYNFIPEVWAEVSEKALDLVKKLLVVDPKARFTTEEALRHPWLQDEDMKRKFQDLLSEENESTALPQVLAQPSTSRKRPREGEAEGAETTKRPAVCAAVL
UniProt Q8K4F5, sequence (whole entry, looked up): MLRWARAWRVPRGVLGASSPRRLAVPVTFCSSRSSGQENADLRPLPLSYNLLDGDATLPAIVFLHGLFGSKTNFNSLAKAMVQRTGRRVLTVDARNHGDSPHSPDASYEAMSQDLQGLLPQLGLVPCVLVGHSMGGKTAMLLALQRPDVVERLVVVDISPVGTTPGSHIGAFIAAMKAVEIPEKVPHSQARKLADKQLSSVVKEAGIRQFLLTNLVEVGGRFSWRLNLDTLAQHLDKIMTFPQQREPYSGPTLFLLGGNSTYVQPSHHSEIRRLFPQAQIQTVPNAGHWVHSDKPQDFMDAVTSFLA
UniProt Q8I2X3, sequence (whole entry, looked up): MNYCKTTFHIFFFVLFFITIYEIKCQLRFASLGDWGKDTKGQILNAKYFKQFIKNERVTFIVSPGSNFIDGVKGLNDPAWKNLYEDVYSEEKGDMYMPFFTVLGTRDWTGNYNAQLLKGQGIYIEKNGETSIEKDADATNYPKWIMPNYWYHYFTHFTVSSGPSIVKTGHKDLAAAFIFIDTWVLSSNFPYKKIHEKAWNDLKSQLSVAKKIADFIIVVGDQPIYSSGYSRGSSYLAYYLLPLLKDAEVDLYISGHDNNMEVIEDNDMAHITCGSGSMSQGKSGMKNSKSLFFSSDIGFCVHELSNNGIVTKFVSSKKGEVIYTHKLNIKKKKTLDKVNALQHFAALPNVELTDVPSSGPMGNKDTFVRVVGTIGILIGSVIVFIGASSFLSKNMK

Structure (SMILES) | target | test | test system | setting | scale | endpoint | result
COc1cc2c3cc1Oc1cc(ccc1O)CC1c4c(cc(OC)c(O)c4Oc4ccc(cc4)CC3N(C)CC2)CCN1C (stereo not shown) | Glideosome-associated protein 50 (GAP50, Plasmodium falciparum, UniProt Q8I2X3) | binding, surface plasmon resonance | – | 1:1 binding model | – | koff | 0.442 s⁻¹
O=C(N1CCCCC1)n1ccnn1 | Platelet-activating factor acetylhydrolase IB subunit alpha1 (Pafah1b3, Mus musculus, UniProt Q61205) | enzyme activity, inhibitor, competitive ABPP-SILAC, item: Pafah1b3 | mouse T-cells | concentration not given, 4 h, treated in situ | reference: DMSO | activity ratio | 1.72
C#CCCCCOc1ccc2c(c1)CCCN2C(=O)CCl | Epoxide hydrolase 1 (EPHX1, Homo sapiens, UniProt P07099) | mass spectrometry profiling | H460 cell lysate | 100 µM over 10 µM, UniProt P07099 | reference: high over low concentration | reactivity ratio | 1.49
CS(C)(=O)=Nc1ccc(-c2ccc(-c3nc4cc(O[C@@H]5CO[C@H]6[C@@H]5OC[C@H]6O)[nH]c4cc3F)cc2)cc1 | CHEK2 (Homo sapiens, UniProt O96017, I157T) | enzyme activity, inhibitor | – | 10 µM | – | inhibition | -22%
CCCCC/C=C\C/C=C\C/C=C\C/C=C\CCCC(=O)NCCc1ccc(O)c(O)c1 | Trpv1 (Mus musculus, UniProt Q704Y3, Y512F) | ion current, agonist, whole-cell patch clamp | – | Y512F | – | Hill coefficient | 1.54 ± 0.22
CCc1nnc(-c2c(OC)cc(-c3cnc4cc(-c5cnn(C)c5)ccn34)cc2OC)o1 | PDE3A (Homo sapiens, UniProt Q14432) | – | – | 10 µM | – | inhibition of specific binding | 0%
CC(C)CC(O)(CC(C)C)c1cn(C(=O)N2CCCC2)nn1 | sn-1-specific diacylglycerol lipase ABHD11 (Mus musculus, UniProt Q8K4F5) | probe labelling, inhibitor, item: Abhd11 | mouse, brain | i.p., 0.8 mg/kg, 4 h, protein level | reference: treated over vehicle mice, lower = stronger inhibition | activity ratio-of-ratios | 3.17
C[C@H](NCc1ccc(-c2ccc(C(F)(F)F)cc2)cc1)C(N)=O | Tyrosine-protein kinase ABL1, phosphorylated (ABL1, Homo sapiens, UniProt P00519) | cell-free assay, competition with immobilised ligand | – | 1 µM | – | inhibition | 8%
O=C1NC(=O)c2c1c1cc(F)c[n+]3c1c1c2c2cc(O)ccc2[n]1[Ru-4]312([N]=C=S)[S+]3CC[S+]1CC[S+]2CC3 (stereo not shown) | ITK (Homo sapiens, UniProt Q08881) | enzyme activity | – | 100 nM, human enzyme, added: 10 µM ATP | reference: untreated | remaining activity | 66%
CCOC(=O)[C@@H]1Cc2c(cc([N+](=O)[O-])cc2[N+](=O)[O-])[C@H](O)[C@]12C(=O)Nc1ccc(Br)cc12 | PLK4 (Homo sapiens, UniProt O00444) | binding, competition with immobilised ligand | – | 0.1 µM | – | remaining binding | 45%
CC[C@H](C)[C@H](NC(=O)[C@H](CCCNC(=N)N)NC(=O)[C@H](CCCNC(=N)N)NC(=O)[C@H](CC(C)C)NC(=O)[C@H](Cc1ccccc1)NC(=O)CNC(=O)CNC(=O)[C@@H](N)Cc1ccc(O)cc1)C(=O)N[C@@H](CCCNC(=N)N)C(=O)N1CCC[C@H]1C(=O)N[C@@H](CCCCN)C(=O)N[C@@H](CC(C)C)C(=O)N[C@@H](CCCCN)C(=O)O | GPR139 (Homo sapiens, UniProt Q6DWJ6) | G protein activation, agonist, BRET, item: Gα14 | HEK-293T/17 | 40 µM | reference: GαoA response | Emax | 18.3%
CON(C(=O)c1cn(C)nc1C(F)F)C(C)Cc1c(Cl)cc(Cl)cc1Cl (stereo not shown) | SDHD/SDHC/SDHB (Sus scrofa, UniProt A5GZW8+D0VWV4+Q007T0) | enzyme activity, inhibitor, DCIP reduction | pig | 0.1 µM, added: DCIP 120 µM | – | reaction velocity | 0.0201 µM/s and 0.02 µM/s and 0.0211 µM/s
COCC1CCCCN1C(=O)n1cc(C(O)(c2ccccc2)c2ccccc2)nn1 (stereo not shown) | Lysosomal protective protein (Ctsa, Mus musculus, UniProt P16675) | enzyme activity, inhibitor, competitive ABPP-SILAC, item: Ctsa | mouse T-cells | concentration not given, 4 h, treated in situ | reference: DMSO | activity ratio | 1.34
CSCC[C@H](NC=O)C(=O)N[C@@H](CCCNC(=N)N)C(=O)N[C@H](C(=O)NCC(=O)N[C@@H](CC(N)=O)C(=O)N[C@@H](C)C(=O)N[C@@H](CC(N)=O)C(=O)NCC(=O)NCC(=O)N[C@@H](CCCCNC(=S)Nc1ccc2c(c1)C(=O)OC21c2ccc(O)cc2Oc2cc(O)ccc21)C(=O)O)[C@@H](C)O | Uncharacterized protein YejA (yejA, Escherichia coli, UniProt P33913, S499A) | ligand, fluorescence polarization | – | – | reference: wild-type YejA | affinity relative to wild type | 2.5 fold
CC(C)[C@H]1NC(=O)C[C@H]2/C=C/CCSSC[C@@H](NC1=O)C(=O)N[C@H](Cc1cccc3ccccc13)C(=O)NCC(=O)O2 | TEC (Homo sapiens, UniProt P42680) | enzyme activity, inhibitor | – | 10 µM | – | inhibition | 3.1%
N[C@H](C(=O)N1CCCC1)C1CCN(c2nccc3c(-c4ncc(Cl)cc4Cl)cccc23)CC1 | PADI1 (Homo sapiens, UniProt Q9ULC6) | enzyme activity | – | 0.03932 µM, added: Ca2+ 0.25 mM | – | kcat | 0.313 s⁻¹ and 0.32 s⁻¹
CN(C)[C@H]1C[C@@]23CC[C@@]4(O2)C(=CC[C@]2(C)[C@@H](c5ccc6ccncc6c5)CC[C@H]24)C=C3[C@@H](O)[C@@H]1O | NEK9 (Homo sapiens, UniProt Q8TD19) | ATP probe labelling, inhibitor, KiNativ profiling | – | 0.1 µM | – | inhibition | 4.9%
COc1ccc(NC(=S)NCCN2CCC(C)CC2)cc1Cl | uncharacterized protein (Anopheles gambiae, UniProt Q7QFG0) | enzyme activity, inhibitor, Ellman | – | up to 1000 µM, pH 7.4, 30 °C, added: 1 mM acetylthiocholine | – | IC50 | inactive
CC[C@H](C)[C@H](NC(=O)[C@H](CO)NC(=O)[C@H](CO)NC(=O)[C@H](CCC(=O)O)NC(=O)[C@H](CCC(=O)O)NC(=O)[C@H](CCCCN)NC(=O)[C@H](CO)NC(=O)[C@@H](NC(=O)[C@H](CO)NC(=O)[C@H](CC(C)C)NC(=O)[C@H](Cc1ccccc1)NC(=O)[C@H](CCCNC(=N)N)NC(=O)[C@H](C)NC(=O)[C@H](Cc1ccccc1)NC(=O)[C@H](Cc1ccccc1)NC(=O)[C@@H]1CCCN1C(=O)[C@H](CC(C)C)NC(=O)[C@H](C)NC(=O)[C@H](CCCCN)NC(=O)CNC(=O)[C@H](CCC(N)=O)NC(=O)[C@H](CCC(N)=O)NC(=O)[C@H](CC(=O)O)NC(=O)[C@H](CC(N)=O)NC(=O)[C@@H]1CCCN1C(=O)[C@H](Cc1ccc(O)cc1)NC(=O)[C@H](C)NC(=O)[C@@H](N)CCSC)C(C)C)C(=O)N[C@@H](CCCCN)C(=O)N[C@@H](CO)C(=O)N1CCC[C@H]1C(=O)N[C@@H](CO)C(=O)N1CCC[C@H]1C(=O)N[C@@H](CC(=O)O)C(=O)N[C@@H](Cc1c[nH]cn1)C(=O)N[C@@H](CCC(=O)O)C(=O)N[C@H](C(=O)N[C@@H](CO)C(=O)N[C@H](C(=O)N[C@@H](CCCNC(=N)N)C(=O)N[C@@H](CCCCN)C(=O)N[C@@H](Cc1ccc(O)cc1)C(=O)N1CCC[C@H]1C(=O)N[C@@H](CO)C(=O)N[C@@H](CC(=O)O)C(=O)N[C@@H](Cc1c[nH]c2ccccc12)C(=O)N[C@@H](CCC(=O)O)C(=O)N[C@@H](CCC(=O)O)C(=O)N[C@@H](Cc1c[nH]c2ccccc12)C(=O)O)[C@@H](C)O)[C@@H](C)CC | uncharacterized protein (Microcystis aeruginosa MRC, UniProt B2G3D0, D281A) | ITC | Microcystis aeruginosa | concentration not given, pH 8.0, 25 °C | – | binding stoichiometry | 0.71 ± 0.01

Some of these lines once more:
Structure (SMILES) | target | test | test system | setting | scale | endpoint | result
N[C@H](C(=O)N1CCCC1)C1CCN(c2nccc3c(-c4ncc(Cl)cc4Cl)cccc23)CC1 | PADI1 (Homo sapiens, UniProt Q9ULC6) | enzyme activity | – | 0.03932 µM, added: Ca2+ 0.25 mM | – | kcat | 0.313 s⁻¹ and 0.32 s⁻¹
CN(C)[C@H]1C[C@@]23CC[C@@]4(O2)C(=CC[C@]2(C)[C@@H](c5ccc6ccncc6c5)CC[C@H]24)C=C3[C@@H](O)[C@@H]1O | NEK9 (Homo sapiens, UniProt Q8TD19) | ATP probe labelling, inhibitor, KiNativ profiling | – | 0.1 µM | – | inhibition | 4.9%
